Measurements gathered from unrelated publications.
Parts stem from different laboratories: compare values within a part only. Positions count from the first letter of the parent shown.
UniProt Q969T4, sequence (whole entry, looked up): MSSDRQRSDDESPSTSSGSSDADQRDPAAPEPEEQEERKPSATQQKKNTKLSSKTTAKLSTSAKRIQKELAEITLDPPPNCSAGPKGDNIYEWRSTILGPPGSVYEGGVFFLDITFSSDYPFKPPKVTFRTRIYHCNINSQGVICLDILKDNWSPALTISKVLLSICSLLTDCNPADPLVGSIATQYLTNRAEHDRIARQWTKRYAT
UniProt P51668, sequence (whole entry, looked up): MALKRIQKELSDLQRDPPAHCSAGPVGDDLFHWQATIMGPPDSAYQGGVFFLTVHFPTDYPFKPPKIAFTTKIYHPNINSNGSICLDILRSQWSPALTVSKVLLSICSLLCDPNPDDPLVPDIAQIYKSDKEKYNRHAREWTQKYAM
UniProt Q9H832, sequence (whole entry, looked up): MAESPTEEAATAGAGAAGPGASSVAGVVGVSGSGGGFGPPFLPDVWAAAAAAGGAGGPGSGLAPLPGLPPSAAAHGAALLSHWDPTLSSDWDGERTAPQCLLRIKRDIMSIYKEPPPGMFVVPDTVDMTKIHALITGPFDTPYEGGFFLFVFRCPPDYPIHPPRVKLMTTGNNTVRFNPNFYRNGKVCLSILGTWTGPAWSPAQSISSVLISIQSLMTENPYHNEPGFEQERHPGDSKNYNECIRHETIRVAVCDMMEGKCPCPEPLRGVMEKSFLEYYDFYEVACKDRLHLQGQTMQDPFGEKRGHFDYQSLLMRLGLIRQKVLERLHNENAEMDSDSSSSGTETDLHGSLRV
UniProt Q9Y385, sequence (whole entry, looked up): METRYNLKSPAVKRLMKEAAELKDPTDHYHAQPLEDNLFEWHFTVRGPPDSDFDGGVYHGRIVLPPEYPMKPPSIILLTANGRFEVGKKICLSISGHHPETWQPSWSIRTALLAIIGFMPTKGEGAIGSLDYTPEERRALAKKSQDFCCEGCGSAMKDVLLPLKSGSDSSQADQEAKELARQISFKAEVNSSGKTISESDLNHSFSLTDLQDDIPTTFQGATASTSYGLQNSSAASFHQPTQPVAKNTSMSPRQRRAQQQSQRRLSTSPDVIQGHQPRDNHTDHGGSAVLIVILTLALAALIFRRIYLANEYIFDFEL
UniProt Q7Z7E8, sequence (whole entry, looked up): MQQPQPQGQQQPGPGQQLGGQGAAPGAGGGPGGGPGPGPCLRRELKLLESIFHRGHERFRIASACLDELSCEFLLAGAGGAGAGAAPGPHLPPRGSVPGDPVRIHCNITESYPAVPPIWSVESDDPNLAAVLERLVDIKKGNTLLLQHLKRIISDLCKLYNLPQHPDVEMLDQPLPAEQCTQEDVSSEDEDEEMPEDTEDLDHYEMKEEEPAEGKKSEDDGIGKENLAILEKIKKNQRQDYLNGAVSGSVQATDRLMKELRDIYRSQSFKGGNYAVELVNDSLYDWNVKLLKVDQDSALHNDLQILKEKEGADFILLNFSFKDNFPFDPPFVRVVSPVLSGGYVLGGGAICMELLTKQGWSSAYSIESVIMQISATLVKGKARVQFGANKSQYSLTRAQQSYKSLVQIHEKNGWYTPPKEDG
UniProt Q712K3, sequence (whole entry, looked up): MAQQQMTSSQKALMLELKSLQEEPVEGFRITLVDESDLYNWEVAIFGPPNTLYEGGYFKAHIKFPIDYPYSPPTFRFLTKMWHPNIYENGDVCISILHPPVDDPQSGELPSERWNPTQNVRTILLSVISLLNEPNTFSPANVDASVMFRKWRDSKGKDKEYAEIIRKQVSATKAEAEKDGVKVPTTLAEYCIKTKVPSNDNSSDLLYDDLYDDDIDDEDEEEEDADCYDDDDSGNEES

Set 1 — method: RNA Bind-n-Seq; molecule type: RNA; medium: in vitro; tested at: not given; reference: input RNA pool; direction: higher = stronger binding
Target: RING finger protein unkempt homolog, zinc fingers 1-6, GST-SBP tag (UNK, Homo sapiens, UniProt Q9C0B0, residues 30-357)
Notes: RNA with constant flanks, human and mouse sites, ends assumed
Constant ends, left off below: GGGAGUUCUACAGUCCGACGAUC … CAACAGAGGAUUGAGCAUCA
Construct (chain): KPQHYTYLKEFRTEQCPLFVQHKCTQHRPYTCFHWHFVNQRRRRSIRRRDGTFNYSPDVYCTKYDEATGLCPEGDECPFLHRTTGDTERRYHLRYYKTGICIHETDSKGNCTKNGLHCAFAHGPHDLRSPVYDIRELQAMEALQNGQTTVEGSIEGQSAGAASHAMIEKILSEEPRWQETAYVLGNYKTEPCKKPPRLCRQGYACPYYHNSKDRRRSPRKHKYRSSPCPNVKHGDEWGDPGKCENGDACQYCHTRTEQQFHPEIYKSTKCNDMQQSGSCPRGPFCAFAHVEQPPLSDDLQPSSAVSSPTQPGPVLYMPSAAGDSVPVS
For `ACUGGAACCUGUGACAAAGUCAAUAACAUCCACCCAGCUGUUCAUACAAAGACUGAUAACUCUGUUGCCUCUUCACCAUCUUCAGCCAUUUCAACAGCAACACCUUCUCCAAAAUCCACU`, the bound/input enrichment was 0.266 ratio.
For `UCAGGAACUCAGACAAAUAUGAAUGUAAAUGAAGUCAUUAGCAAUAGAGCAAUUGAAAUGUUAGGAGGUGAACUUGGCAGCAAGAUACCUGUGCAUCCCAACGAUCAUGUUAAUAAAAGC`, the bound/input enrichment was 1.36 ratio.
`AAUGUUAAACUUAAAGCUCAGACAUAUGAACUCCAGGAAAGUAAUGUUCAAUUGAAAUUGACCAUUGUGAAUACAGUGGGAUUUGGUGACCAAAUAAAUAAAGAAGAGAGCUACCAACCA` has a bound/input enrichment of 0.082 ratio.
For `CAGAAGCCAGUUGUGCACCCCUCAGCACCUGCUCCGCUCCCCAAAGACUACGCUUUUACCUUCUUCGAUCCCAAUGACCCUGCGUGCCAGGAAAUUCUGUUUGACCCGAAGACCACCAUC`, the bound/input enrichment was 0.357 ratio.
The bound/input enrichment of `ACAUCCUUGGCGUGGCACCCAACUCACCCCAGCACUGUGGCUGUGGGUUCCAAAGGGGGAGAUAUCAUGCUCUGGAAUUUUGGCAUCAAGGACAAACCCACCUUCAUCAAAGGGAUUGGA` is reported as 0.127 ratio.
For `CUCGUGCACUCCAGGGCAAGUGCUCUACUCACUAAACACUUUUCUGUUGAAUGAGAUUUUUCUUACCCUUUAAGGUGCUGUCUCCUAAAAUAAAAACCUCGAGACUGUCCCUACUUGUUG`, the bound/input enrichment was 0.174 ratio.
The bound/input enrichment of `UUUGACAAUGUGGGCCUUUCCCCAGAUGGCUACCUAUAUAAAUGGCUUGACAACAUUCUGGCUUGUCAAGAUUUACGAGUUCAUCAACUUGGCUGCGAAGUUGUUGUCUUGCUACUGGAA` is reported as 0.142 ratio.
`GGAAAAUAUGUGUAUGUAGUAACAGAACUUAUGAAAGGAGGUGAAUUGCUGGAUAAGAUUCUUAGACAGAAGUUUUUCUCAGAGCGAGAGGCCAGCGCUGUCCUGUUUACUAUAACCAAA` has a bound/input enrichment of 0.306 ratio.

Set 2 — target: CCNF, cyclin fold, Cln2 fusion (human); method: yeast growth competition, sequencing; medium: yeast; notes: strong parent motif; reference: not given; direction: higher = stronger binding
Starting sequence: ORC1 docking peptide (human); PRARKRLELGNLG
`K5D` — result for “normalised enrichment score”: 0.312.
`P1I`: “normalised enrichment score” 3.64.
`R6C`: “normalised enrichment score” 1.32.
`L9F` — result for “normalised enrichment score”: 7.26.
For `L7Q`, “normalised enrichment score” read 0.799.
For `G10R`, “normalised enrichment score” read 1.81.
`R4W` — result for “normalised enrichment score”: 1.17.
`K5A L7A` — result for “normalised enrichment score”: 0.841.
`R6K` — result for “normalised enrichment score”: 3.26.
For `N11V`, “normalised enrichment score” read 4.29.
Under “normalised enrichment score”, `R2Q` is recorded as 3.07.
Under “normalised enrichment score”, `K5C` is recorded as 1.31.
Under “normalised enrichment score”, `L12N` is recorded as 3.68.
`R4T` — result for “normalised enrichment score”: 1.49.
`L7W`: “normalised enrichment score” 1.87.
Under “normalised enrichment score”, `R2E` is recorded as 2.02.
Under “normalised enrichment score”, `A3K` is recorded as 1.9.
`K5V` — result for “normalised enrichment score”: 0.793.
`K5P` — result for “normalised enrichment score”: 0.407.
For `R2Y`, “normalised enrichment score” read 2.42.
Under “normalised enrichment score”, `P1K` is recorded as 3.01.
`N11S`: “normalised enrichment score” 3.97.
For `L12C`, “normalised enrichment score” read 3.69.
Under “normalised enrichment score”, `N11Y` is recorded as 5.2.
`A3V`: “normalised enrichment score” 3.88.

Set 3 — target: FOSB, bZIP domain (human); method: DHFR protein complementation; medium: yeast; reference: wild-type JUN-FOS pair; direction: higher = stronger binding
Notes: single substitutions, most at no-binding floor
Starting sequence: JUN, bZIP domain (human); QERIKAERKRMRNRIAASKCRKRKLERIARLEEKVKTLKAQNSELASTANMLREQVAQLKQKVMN; partner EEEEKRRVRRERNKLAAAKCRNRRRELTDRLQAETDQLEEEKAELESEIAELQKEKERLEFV
With `M51I` the binding fitness was -0.108 natural log.
With `T48H` the binding fitness was -0.0702 natural log.
The binding fitness of `K36A` is reported as 0.061 natural log.
For `A40N`, the binding fitness was -0.136 natural log.
The binding fitness of `N42H` is reported as -0.5 natural log.
`L31S` has a binding fitness of -0.596 natural log.
`A29F` has a binding fitness of -0.224 natural log.
`M51W` has a binding fitness of -0.132 natural log.
With `K39I` the binding fitness was -0.567 natural log.
With `N42I` the binding fitness was -0.0201 natural log.
`A49M` has a binding fitness of -0.397 natural log.
`Q55A` gave a binding fitness of 0.00273 natural log.
With `K39E` the binding fitness was -0.578 natural log.
`T37I` has a binding fitness of -0.121 natural log.
With `N42C` the binding fitness was 0.0709 natural log.
`E44T` has a binding fitness of -0.162 natural log.
`A57N` has a binding fitness of -0.134 natural log.
`E32R` gave a binding fitness of 0.00466 natural log.
The binding fitness of `S47N` is reported as -0.0862 natural log.
`A46Q` has a binding fitness of -0.0462 natural log.
`A40Q` gave a binding fitness of 0.129 natural log.

Set 4 — method: RNA Bind-n-Seq; molecule type: RNA; medium: in vitro; tested at: 365 nM; reference: no-protein control; direction: higher = stronger binding
Target: RNA binding protein fox-1 homolog 2, RRM domain, GST-SBP tag (RBFOX2, Homo sapiens, UniProt O43251-10, residues 100-194)
Notes: natural RNA segment, single round, ends assumed
Constant ends, left off below: GGGAGUUCUACAGUCCGACGAUC … UGGAAUUCUCGGGUGCCAA
Construct (chain): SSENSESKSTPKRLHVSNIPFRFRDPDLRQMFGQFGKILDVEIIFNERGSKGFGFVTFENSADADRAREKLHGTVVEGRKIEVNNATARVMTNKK
`AGGAGCAGACUGCUGCUGUUUUGGGGCUAGAUCCUUUCCUCUCCUCUCUGCUGCACCACUGUCAGACUGGGCUCUAACCCAAGUGGAAUGCAACUGAGAGGGUCUUCCUG` — result for “RBNS enrichment (R)”: 0.298.
For `UCCAAGGCACCCAAUGCUCCACCCUUUAAUACAGUUUCUUAUGGUUGUUGUGACCCCCAACCAUAAAAUCAUUUUGUUGCUAUUUCAUGUCUGUAAUUUUGCUAGUUCAU`, “RBNS enrichment (R)” read 0.771.
For `UUACCCCACCUGUCCUAUCAGGUGGGCCACACCCUGCUUGCCCACACCAGGGUCUGUCCUGGUCCUCAAGCCACGCACCCGCUAUGCCUGCACUGCAGCCCAGCCCCGGA`, “RBNS enrichment (R)” read 0.281.
Under “RBNS enrichment (R)”, `AGUGUUCUAAUUACCUUAAAAAAAAAUAAUGACCAGUUAAGAAUUGCUUUUGAUCUUGUCAAAAAACUGAAUAGACCCCAGUUUCGGGAAGGUGUGUGAGCAGUGCCAUG` is recorded as 0.692.
For `UGAACUCCAGCCUUCCUUCCGUGGAGCUCGAGUGAGGUUUACGGAGGUGCCCAGAUUCCUUUCCCUUUAACGCGUGUAAAGUUCUGUGCAUUUGAUUGUAAACUGUACUC`, “RBNS enrichment (R)” read 0.305.
For `CACUUCGGAGUCAAAUCAUACACUAGGCCUUUGAUGCUUUAAUUCUUCUUCAGUUCAUUAAAAGUAACUACUAAGGAAAGGUUAAAAACUUCCCCUCAAAAAGGAAUCAA`, “RBNS enrichment (R)” read 0.356.
`AGUGAGAGUAUUUAUUUUUGGCAUGUUUGGCCCACCACACAGACUCUGUGUGUGUAUGUGUGUGUUUAUAUGUGUAUGUGUGUGACAGAAAAAUCUGUAGAGAAGAGGCA` — result for “RBNS enrichment (R)”: 5.77.
`AUCCAUUAUCUUGGCUGUGAGCUCCUUGGGUACGGGUACCUUGUAUGUUUACUUUUAUAUCCCUAGCACAAAGCAAGUGCCUGGCACAUAGUCAGUGCCCUAAGUAUUCG`: “RBNS enrichment (R)” 0.478.

Set 5 — Sequence: B1 (TRIM11 RING domain); method: yeast two-hybrid; medium: yeast; notes: mostly zero background; reference: not given; direction: higher = stronger interaction
B1: TRIM11 RING domain (UniProt Q96F44); chain LSTNLQEEATCAICLDYFTDPVMTDCGHNFCRECIRRCWGQPEGPYACPECRELSPQRNLRP
It gave 0 for “lacZ reporter activity” (UBE2R2 UBC core domain (UniProt Q712K3)).
It gave 0 for “lacZ reporter activity” (UBE2Q1 UBC core domain (UniProt Q7Z7E8)).
For UBE2Z UBC core domain (UniProt Q9H832): “lacZ reporter activity” read 0.
The “lacZ reporter activity” was 0 (UBE2D1 UBC core domain (UniProt P51668)).
The “lacZ reporter activity” was 0 (UBE2J1 UBC core domain (UniProt Q9Y385)).
The “lacZ reporter activity” was 0 (UBE2I UBC core domain (UniProt P63279)).
The “lacZ reporter activity” was 0 (UBE2E3 UBC core domain (UniProt Q969T4)).

Excerpt of the above (set 1):
`AAUGUUAAACUUAAAGCUCAGACAUAUGAACUCCAGGAAAGUAAUGUUCAAUUGAAAUUGACCAUUGUGAAUACAGUGGGAUUUGGUGACCAAAUAAAUAAAGAAGAGAGCUACCAACCA` has a bound/input enrichment of 0.082 ratio.
For `CAGAAGCCAGUUGUGCACCCCUCAGCACCUGCUCCGCUCCCCAAAGACUACGCUUUUACCUUCUUCGAUCCCAAUGACCCUGCGUGCCAGGAAAUUCUGUUUGACCCGAAGACCACCAUC`, the bound/input enrichment was 0.357 ratio.
The bound/input enrichment of `ACAUCCUUGGCGUGGCACCCAACUCACCCCAGCACUGUGGCUGUGGGUUCCAAAGGGGGAGAUAUCAUGCUCUGGAAUUUUGGCAUCAAGGACAAACCCACCUUCAUCAAAGGGAUUGGA` is reported as 0.127 ratio.
For `CUCGUGCACUCCAGGGCAAGUGCUCUACUCACUAAACACUUUUCUGUUGAAUGAGAUUUUUCUUACCCUUUAAGGUGCUGUCUCCUAAAAUAAAAACCUCGAGACUGUCCCUACUUGUUG`, the bound/input enrichment was 0.174 ratio.
The bound/input enrichment of `UUUGACAAUGUGGGCCUUUCCCCAGAUGGCUACCUAUAUAAAUGGCUUGACAACAUUCUGGCUUGUCAAGAUUUACGAGUUCAUCAACUUGGCUGCGAAGUUGUUGUCUUGCUACUGGAA` is reported as 0.142 ratio.
`GGAAAAUAUGUGUAUGUAGUAACAGAACUUAUGAAAGGAGGUGAAUUGCUGGAUAAGAUUCUUAGACAGAAGUUUUUCUCAGAGCGAGAGGCCAGCGCUGUCCUGUUUACUAUAACCAAA` has a bound/input enrichment of 0.306 ratio.
